Measurements from different studies.
Each numbered part is a random draw from the data of one study; scales do not carry over between parts.

Set 1
Target: Histone acetyltransferase KAT6A, both winged helices, GST fusion (KAT6A, Homo sapiens, UniProt Q92794, residues 1-181)
Method: protein binding microarray
Molecule type: double-stranded DNA, one strand shown
Sample: in vitro
Concentration: not given
Notes: 8-mer, flanks averaged, mean of 2 arrays, mostly near background
Reference: not given
Reading: higher = stronger binding
Target sequence (chain): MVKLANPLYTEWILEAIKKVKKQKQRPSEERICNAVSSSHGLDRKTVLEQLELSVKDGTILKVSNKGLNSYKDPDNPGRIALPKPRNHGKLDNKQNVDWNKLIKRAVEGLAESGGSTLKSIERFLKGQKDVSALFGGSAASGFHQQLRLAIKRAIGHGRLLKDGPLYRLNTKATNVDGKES
Strand | E-score
AAGCTGAG | -0.0514
CCTGTTTC | -0.157
ATTGGAAG | -0.174
AGGCCCGA | 0.026
GGACATCC | 0.0729
GGTACAGA | -0.03
TCAACTCA | -0.245
AGAGTCCA | -0.195
CCCCCGAG | 0.0643
AGGGCCGA | 0.0894
GCTTGGGA | -0.115
CTGTAGCC | -0.133
AGCCAAAC | 0.0708
CTCCAGGC | -0.0242

Set 2
Target: Ras GTPase-activating protein-binding protein 1, full length (G3BP1, Homo sapiens, UniProt Q13283)
UniProt Q13283, sequence (whole entry, looked up): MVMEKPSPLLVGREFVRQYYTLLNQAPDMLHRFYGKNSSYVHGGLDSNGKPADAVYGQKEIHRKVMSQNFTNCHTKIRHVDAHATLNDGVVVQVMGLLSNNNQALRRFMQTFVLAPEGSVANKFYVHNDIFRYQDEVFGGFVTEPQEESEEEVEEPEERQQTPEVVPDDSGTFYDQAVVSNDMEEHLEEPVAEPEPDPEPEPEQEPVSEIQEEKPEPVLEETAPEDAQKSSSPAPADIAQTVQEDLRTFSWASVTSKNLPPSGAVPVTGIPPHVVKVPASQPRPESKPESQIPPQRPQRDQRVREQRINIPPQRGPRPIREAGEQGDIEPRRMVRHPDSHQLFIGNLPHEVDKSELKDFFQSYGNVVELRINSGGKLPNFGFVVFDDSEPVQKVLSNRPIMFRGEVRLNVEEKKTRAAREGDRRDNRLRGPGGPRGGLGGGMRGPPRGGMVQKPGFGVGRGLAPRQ
Method: RNA Bind-n-Seq
Molecule type: RNA
Sample: in vitro
Concentration: 200 nM
Notes: whole 134-nt RNA, ends assumed
Added: 150 mM KCl
Reference: input library
Reading: higher = stronger binding
Strand | log2 enrichment
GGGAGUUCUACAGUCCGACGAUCGUCCUGUGCUACACAUCGUAUGUACCGAAUCGGGGUUUUUGGGUUUUUGGGGUUUUUGGAAAGUAUUAUGUUACGCCGUUCGGAUCUGCAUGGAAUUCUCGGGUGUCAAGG | -0.266
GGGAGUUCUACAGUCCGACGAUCCUCAAGUCCUGUGCUACACAUCGUAUGUACCGAAUCGGGGUUGGGGUUGGUUGGAAAGUAUUAUGUUACGCCGUUCGGAUCUGCACUUCCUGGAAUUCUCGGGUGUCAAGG | 0.466
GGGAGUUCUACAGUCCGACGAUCGUCCUGUGCUACACAUCGUAUGUACCGAAUCGGGUUUUUGGGGUUUUUGGGUUUUUGGGAAAGUAUUAUGUUACGCCGUUCGGAUCUGCAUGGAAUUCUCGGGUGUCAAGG | -0.23
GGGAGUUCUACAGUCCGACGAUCAGUCCUGUGCUACACAUCGUAUGUACCGAAUCGGUUUUUGGGUUUUUGGGUUUUUGGAAAGUAUUAUGUUACGCCGUUCGGAUCUGCACUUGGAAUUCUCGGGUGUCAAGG | -1.16
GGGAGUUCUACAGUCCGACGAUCGUCCUGUGCUACACAUCGUAUGUACCGAAUCGGGGUGGGGAAAGGGGUUUUUUUGGGGAAAGUAUUAUGUUACGCCGUUCGGAUCUGCACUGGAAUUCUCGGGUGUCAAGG | 0.547
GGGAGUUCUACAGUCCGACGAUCUAACUUUAGAGGAGGAUCUGAUGGAUAUGGCAGUGGACGUGGAUUUGGGGAUGGCUAUAAUGGGUAUGGAGGAGGACCUAGAGGUGGCAAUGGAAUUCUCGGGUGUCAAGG | 0.0131

Set 3
Target: RNA binding protein fox-1 homolog 2, RRM domain, GST-SBP tag (RBFOX2, Homo sapiens, UniProt O43251-10, residues 100-194)
Method: RNA Bind-n-Seq
Molecule type: RNA
Sample: in vitro
Concentration: 365 nM
Notes: natural RNA segment, single round, ends assumed
Reference: no-protein control
Reading: higher = stronger binding
Residues (chain): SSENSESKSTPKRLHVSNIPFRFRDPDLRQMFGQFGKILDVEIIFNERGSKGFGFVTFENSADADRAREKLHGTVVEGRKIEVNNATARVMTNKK
Strand | RBNS enrichment (R)
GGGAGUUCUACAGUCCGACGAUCUUCAAAUCUGGAUUGUUCUGUGAAGGGUCUCACUUUUGUAUCAUGAGACAAGAGUGCCUAUGAGAAACCAUUGCACCUGGGAGCACUGCUUGGAGCUAUCUCUACAUUUAUGGAAUUCUCGGGUGCCAA | 0.434
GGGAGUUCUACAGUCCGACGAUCUCGGAGGCCCAGCAUCCUGCAACCGACCCCUUUUUUCUACUGGAAGAGAAAUUUUAUCAUCUUUUGAAAGGAAGUCAUGACUGAAGCAAUAAACCUUUUCACUGAUUCAAUGGAAUUCUCGGGUGCCAA | 0.644
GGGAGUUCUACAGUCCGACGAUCAGAGUCUCCUUUUCCCAUCCUUGGUGCAGACUGUGCCUGCCUGGACUCCGUAGAAAGCACUGGAUUUUGUGACAUGUAUAUUAAAAACAGGGCAUUUCAAAGUAAUUUUGUGGAAUUCUCGGGUGCCAA | 0.881
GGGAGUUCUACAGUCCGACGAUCAUUGGGGCCGCCAUCCUGCCUGGCACUGGCUGAUGGGCACCUCUGUUGGUUCCAUCAGCCAGAGCUCUGCCAAAGGCCCCGCAGUCCCUCUCCCAGGAGGACCCUAGAGGUGGAAUUCUCGGGUGCCAA | 0.246
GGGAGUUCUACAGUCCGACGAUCAGGGAGAGGAAGUCUCGCUCUCUCUCCUCACAGCCCUUGGCCCCAGCAUUUAUUCUUGGGUCCUUUAGCCAAACCCAUUCCCUCUUCCUCCCAUGCAAGUUCUUUUGGGAUGGAAUUCUCGGGUGCCAA | 2.87
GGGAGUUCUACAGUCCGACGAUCACAGCCAAAUGGAUUGACUACAGUGGGGGCAGCUAAUUAAUGAUUAAUCAGAAGCAUUUGAUAAUAAUCUGCCUUGCAGCCACGCCUUCAAACUUCAUUGUUGCUUUCUCUGGAAUUCUCGGGUGCCAA | 0.378
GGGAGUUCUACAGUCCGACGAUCGUGGCCAUAGGGACCAGAAAGCAGCUUAGGAAAUCUAUCCAUUGGCCCUUUUAGAGUCUCUGUGUGAACCCAACUCUACUGAACUUAAACACCUUCCAAACAGUGGCAGGUGGAAUUCUCGGGUGCCAA | 0.25

Set 4
Target: Sal-like protein 4, full length isoform B (SALL4, Homo sapiens, UniProt Q9UJQ4-2, residues 1-616)
Method: universal PBM
Molecule type: double-stranded DNA, one strand shown
Sample: in vitro
Concentration: not given
Notes: 8-mer, flanks averaged, mean of replicates
Reading: higher = stronger binding
Construct (chain): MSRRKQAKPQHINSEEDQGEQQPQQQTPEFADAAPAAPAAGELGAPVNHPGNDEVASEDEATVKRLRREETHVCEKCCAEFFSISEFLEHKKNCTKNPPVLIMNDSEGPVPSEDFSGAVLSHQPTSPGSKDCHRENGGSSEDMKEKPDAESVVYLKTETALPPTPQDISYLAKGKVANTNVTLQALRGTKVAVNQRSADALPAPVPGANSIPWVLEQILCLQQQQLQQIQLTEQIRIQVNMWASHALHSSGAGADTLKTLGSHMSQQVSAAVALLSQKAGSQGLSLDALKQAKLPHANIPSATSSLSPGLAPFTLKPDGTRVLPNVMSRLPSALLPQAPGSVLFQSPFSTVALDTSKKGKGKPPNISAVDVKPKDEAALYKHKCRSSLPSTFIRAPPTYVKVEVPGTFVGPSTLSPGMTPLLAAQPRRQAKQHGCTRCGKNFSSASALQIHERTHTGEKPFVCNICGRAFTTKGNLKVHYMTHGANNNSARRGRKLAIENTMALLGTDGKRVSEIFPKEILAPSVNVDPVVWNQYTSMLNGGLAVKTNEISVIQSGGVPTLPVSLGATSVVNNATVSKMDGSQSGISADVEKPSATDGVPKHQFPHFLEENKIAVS
Strand | E-score
AGAGTTAA | 0.0884
GAAATCAA | 0.0379
CGACGAGA | -0.0924
ACCTTTAT | 0.179
ACCCGCGC | -0.256
ACGCCGAC | -0.214
AGGAGGAC | -0.212
ATAGCCGC | -0.222
ACTTGAAT | 0.264

Some of these lines once more (set 4):
Strand | E-score
CGACGAGA | -0.0924
ACCTTTAT | 0.179
ACCCGCGC | -0.256
ACGCCGAC | -0.214
AGGAGGAC | -0.212
ATAGCCGC | -0.222
